Published values pooled from the literature.
Each line is one published result; not all experiments were run side by side. “And” joins repeats or separate records; there may be more than shown. Numbers after ± are the reported error.
Neutral cholesterol ester hydrolase 1: Neutral cholesterol ester hydrolase 1 (Mus musculus, UniProt Q8BLF1)
Breakpoint cluster region protein GAP domain: Breakpoint cluster region protein, GAP domain (Homo sapiens, UniProt P11274)
Sequence of UniProt P11274 (whole entry, looked up): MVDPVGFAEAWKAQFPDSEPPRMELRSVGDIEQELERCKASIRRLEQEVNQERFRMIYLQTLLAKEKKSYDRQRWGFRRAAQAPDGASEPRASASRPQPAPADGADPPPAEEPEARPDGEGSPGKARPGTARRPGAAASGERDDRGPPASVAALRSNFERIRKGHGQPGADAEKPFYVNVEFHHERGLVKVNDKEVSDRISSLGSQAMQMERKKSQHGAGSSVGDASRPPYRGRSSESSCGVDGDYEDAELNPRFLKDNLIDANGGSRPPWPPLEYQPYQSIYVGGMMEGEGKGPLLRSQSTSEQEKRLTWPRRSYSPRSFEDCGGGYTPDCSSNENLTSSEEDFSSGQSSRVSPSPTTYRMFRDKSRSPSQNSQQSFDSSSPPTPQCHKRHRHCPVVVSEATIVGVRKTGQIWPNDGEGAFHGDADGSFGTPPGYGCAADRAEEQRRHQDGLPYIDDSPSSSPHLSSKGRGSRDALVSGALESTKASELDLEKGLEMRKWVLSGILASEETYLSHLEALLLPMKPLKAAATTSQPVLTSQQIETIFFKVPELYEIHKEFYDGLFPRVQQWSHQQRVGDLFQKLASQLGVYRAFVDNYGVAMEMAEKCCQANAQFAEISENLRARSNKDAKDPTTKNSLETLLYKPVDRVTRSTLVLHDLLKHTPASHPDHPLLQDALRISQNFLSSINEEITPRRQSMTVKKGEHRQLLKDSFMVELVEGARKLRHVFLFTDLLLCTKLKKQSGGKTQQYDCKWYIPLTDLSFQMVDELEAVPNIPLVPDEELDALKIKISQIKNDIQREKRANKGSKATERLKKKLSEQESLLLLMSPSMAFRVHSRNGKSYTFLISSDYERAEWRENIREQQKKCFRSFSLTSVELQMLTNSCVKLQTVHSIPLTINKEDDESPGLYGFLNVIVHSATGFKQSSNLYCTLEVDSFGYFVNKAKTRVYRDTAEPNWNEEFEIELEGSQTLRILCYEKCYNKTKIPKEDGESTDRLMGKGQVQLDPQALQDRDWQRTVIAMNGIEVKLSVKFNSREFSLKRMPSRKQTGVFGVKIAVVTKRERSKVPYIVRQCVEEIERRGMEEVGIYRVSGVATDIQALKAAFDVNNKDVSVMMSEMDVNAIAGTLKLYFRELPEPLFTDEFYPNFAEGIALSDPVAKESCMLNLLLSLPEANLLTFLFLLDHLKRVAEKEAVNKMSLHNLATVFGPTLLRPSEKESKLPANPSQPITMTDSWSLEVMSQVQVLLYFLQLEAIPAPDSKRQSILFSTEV
DRD4: D(4) dopamine receptor (DRD4, Homo sapiens, UniProt P21917)
Sequence of UniProt P21917 (whole entry, looked up): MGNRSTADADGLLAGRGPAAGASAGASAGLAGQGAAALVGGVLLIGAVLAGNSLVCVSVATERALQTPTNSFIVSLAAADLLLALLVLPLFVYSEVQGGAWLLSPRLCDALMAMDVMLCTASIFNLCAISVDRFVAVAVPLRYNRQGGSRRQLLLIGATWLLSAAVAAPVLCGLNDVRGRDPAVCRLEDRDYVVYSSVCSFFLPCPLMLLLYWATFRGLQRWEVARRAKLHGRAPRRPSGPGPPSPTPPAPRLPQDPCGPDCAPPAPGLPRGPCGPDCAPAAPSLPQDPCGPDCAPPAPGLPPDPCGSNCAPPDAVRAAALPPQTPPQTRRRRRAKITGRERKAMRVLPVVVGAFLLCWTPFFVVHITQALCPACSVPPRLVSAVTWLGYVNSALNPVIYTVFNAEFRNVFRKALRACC
HDAC3: Histone deacetylase 3 (HDAC3, Homo sapiens, UniProt O15379)
Sequence of UniProt O15379 (whole entry, looked up): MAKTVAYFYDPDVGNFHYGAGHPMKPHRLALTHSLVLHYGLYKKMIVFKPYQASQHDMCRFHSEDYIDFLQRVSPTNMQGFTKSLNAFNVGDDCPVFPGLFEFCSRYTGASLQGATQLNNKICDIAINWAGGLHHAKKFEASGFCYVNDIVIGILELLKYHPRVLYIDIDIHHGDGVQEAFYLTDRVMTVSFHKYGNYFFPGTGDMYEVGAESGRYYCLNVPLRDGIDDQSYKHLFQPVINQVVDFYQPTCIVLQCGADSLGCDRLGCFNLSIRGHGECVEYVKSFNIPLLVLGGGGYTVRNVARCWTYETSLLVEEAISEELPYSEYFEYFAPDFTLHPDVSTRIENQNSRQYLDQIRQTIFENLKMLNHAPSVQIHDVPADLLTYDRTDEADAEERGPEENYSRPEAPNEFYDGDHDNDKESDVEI
sn-1-specific diacylglycerol lipase ABHD11: sn-1-specific diacylglycerol lipase ABHD11 (Mus musculus, UniProt Q8K4F5)
PLAT: Tissue-type plasminogen activator (PLAT, Homo sapiens, UniProt P00750)
PIP4K2A: Phosphatidylinositol 5-phosphate 4-kinase type-2 alpha (PIP4K2A, Homo sapiens, UniProt P48426)
PARP1: Poly [ADP-ribose] polymerase 1 (PARP1, Homo sapiens, UniProt P09874)
Sequence of UniProt P09874 (whole entry, looked up): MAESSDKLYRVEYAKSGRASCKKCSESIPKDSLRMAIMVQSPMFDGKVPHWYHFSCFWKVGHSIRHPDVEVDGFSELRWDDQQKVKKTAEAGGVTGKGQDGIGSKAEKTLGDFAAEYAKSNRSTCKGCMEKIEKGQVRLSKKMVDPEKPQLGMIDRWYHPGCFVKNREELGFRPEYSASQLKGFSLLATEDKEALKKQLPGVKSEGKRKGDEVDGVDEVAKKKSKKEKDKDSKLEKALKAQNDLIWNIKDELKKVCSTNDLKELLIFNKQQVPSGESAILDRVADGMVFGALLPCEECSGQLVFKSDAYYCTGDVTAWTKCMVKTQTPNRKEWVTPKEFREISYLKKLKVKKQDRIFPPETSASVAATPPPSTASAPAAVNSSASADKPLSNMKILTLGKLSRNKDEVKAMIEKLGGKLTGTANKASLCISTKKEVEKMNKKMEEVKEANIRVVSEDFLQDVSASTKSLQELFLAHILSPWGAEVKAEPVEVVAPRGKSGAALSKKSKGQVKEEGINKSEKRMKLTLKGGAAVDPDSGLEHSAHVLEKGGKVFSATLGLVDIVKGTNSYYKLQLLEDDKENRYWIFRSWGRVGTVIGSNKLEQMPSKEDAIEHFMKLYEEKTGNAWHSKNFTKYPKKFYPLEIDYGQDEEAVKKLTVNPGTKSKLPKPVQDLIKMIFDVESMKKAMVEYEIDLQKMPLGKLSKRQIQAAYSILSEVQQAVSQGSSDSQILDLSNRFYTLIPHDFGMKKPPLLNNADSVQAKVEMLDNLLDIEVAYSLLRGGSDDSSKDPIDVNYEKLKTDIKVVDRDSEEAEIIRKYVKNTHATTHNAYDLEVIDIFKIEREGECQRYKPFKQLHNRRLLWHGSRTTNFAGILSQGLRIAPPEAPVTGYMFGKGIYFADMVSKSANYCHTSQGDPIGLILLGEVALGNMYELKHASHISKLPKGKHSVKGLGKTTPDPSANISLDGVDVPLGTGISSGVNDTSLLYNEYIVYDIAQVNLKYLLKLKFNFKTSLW
Platelet-activating factor acetylhydrolase 2, cytoplasmic: Platelet-activating factor acetylhydrolase 2, cytoplasmic (Mus musculus, UniProt Q8VDG7)
Sequence of UniProt Q8VDG7 (whole entry, looked up): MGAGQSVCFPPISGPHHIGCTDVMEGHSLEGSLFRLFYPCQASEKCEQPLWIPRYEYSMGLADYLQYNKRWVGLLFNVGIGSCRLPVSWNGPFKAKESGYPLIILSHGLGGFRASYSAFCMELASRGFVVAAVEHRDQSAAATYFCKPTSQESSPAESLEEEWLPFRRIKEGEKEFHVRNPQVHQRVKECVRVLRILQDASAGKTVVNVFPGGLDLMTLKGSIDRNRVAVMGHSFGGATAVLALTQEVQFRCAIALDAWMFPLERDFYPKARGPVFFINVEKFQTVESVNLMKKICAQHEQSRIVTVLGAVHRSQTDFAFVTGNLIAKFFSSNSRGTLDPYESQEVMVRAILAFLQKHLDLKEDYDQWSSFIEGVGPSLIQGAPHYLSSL
RPS6KA4: Ribosomal protein S6 kinase alpha-4 (RPS6KA4, Homo sapiens, UniProt O75676)
Sequence of UniProt O75676 (whole entry, looked up): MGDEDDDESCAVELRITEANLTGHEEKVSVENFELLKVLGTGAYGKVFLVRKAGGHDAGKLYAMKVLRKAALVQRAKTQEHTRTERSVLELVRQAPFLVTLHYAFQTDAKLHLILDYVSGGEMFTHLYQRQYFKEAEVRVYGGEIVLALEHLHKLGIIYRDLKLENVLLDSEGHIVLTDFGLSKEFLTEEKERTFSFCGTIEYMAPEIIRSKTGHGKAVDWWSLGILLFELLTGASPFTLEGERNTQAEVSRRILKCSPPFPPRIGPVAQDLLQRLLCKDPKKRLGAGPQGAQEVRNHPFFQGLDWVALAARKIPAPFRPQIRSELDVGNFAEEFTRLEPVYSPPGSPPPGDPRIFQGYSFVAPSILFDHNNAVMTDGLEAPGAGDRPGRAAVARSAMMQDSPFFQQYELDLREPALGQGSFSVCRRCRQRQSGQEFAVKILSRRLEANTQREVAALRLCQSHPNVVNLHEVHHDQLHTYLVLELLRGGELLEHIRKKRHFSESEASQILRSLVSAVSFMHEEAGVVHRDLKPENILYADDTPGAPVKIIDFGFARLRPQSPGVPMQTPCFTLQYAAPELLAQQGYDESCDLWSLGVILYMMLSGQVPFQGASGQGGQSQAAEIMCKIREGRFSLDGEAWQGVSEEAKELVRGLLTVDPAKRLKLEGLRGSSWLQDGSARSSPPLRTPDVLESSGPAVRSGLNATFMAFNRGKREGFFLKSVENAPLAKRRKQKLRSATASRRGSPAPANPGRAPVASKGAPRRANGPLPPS
Sequence of UniProt Q9UM07 (whole entry, looked up): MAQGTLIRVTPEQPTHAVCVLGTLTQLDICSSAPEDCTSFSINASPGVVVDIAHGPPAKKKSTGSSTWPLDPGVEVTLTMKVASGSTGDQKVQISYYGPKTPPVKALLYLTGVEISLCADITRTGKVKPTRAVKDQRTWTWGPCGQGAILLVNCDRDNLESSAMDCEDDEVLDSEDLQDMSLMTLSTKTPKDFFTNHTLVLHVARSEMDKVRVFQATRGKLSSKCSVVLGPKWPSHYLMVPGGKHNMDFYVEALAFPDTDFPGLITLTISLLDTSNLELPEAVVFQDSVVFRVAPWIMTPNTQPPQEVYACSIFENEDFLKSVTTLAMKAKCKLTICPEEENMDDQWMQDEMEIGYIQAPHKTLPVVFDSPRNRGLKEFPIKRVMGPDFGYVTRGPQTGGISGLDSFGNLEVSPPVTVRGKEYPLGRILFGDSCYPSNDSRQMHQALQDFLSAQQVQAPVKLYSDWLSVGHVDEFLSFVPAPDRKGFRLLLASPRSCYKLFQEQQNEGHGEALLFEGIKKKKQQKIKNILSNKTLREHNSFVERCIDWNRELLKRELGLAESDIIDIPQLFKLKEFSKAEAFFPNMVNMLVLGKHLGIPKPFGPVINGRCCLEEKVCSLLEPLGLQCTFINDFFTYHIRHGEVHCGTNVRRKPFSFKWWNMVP

Structure (SMILES)	target	test	system	setting	scale	inhibition
C[Si]1(C[C@H](CN)CC(=O)O)CCCC1	L-type calcium channel, rat	binding, radioligand binding	–	70 µM, added: [3H](-)-desmethoxyverapamil	–	0%
CN(C(=O)n1ccnn1)c1ccccc1	Neutral cholesterol ester hydrolase 1	probe labeling, inhibitor, gel-based competitive ABPP	mouse T-cell proteome	1 µM, 30 min, 37 °C	–	< 50%
CCCCCCCCCCCCCCCC(=O)N[C@@H](CCCCN)C(=O)N[C@@H](CCCCN)C(=O)N[C@@H](CO)C(=O)N[C@@H](CCCNC(=N)N)C(=O)N[C@@H](C)C(=O)N[C@@H](CC(C)C)C(=O)N[C@@H](Cc1ccccc1)C(N)=O	Proteinase-activated receptor 1 (F2R, Homo sapiens, UniProt P25116)	platelet aggregation, antagonist, light transmittance aggregometry	human, platelet-rich plasma ex vivo	0.3 mg/kg, 30 min, added: SFLLRN 20 µM	reference: baseline	8%
Nc1ccc2c(c1)OC1(CCCCC1)O2	Breakpoint cluster region protein GAP domain	GAP activity	–	10 µM, selectivity counter screen	–	73%
CCCCCCC#Cc1cncc(-c2nnc(SCc3cc([N+](=O)[O-])cc([N+](=O)[O-])c3)n2C)c1	mraY (Staphylococcus aureus, UniProt Q2FZ93)	cell-free assay, inhibitor	–	250 µM	–	49%
C=CC(=O)Nc1cc(-c2nn(C3CCN(CCNC(=O)[C@H](C)CCC45CC6CC(CC(C6)C4)C5)CC3)c3ncnc(N)c23)ccc1Oc1ccccc1	Kinase suppressor of Ras 1 (KSR1, Homo sapiens, UniProt Q8IVT5)	inhibitor, KiNativ profiling	biochemical	2 µM	–	22.6%
COc1ccc(CN2CC(COc3ccc(C)c(F)c3)CC(F)(F)C2)cc1F (stereo not drawn)	DRD4	ligand displacement, radioligand	–	10 µM	–	35%
COc1ncc2nc(C)n(Cc3ncc(S(N)(=O)=O)cc3F)c2c1-c1ccccc1	Cannabinoid receptor 1 (CNR1, Homo sapiens, UniProt P21554)	antagonist, cell-based	–	10 µM	–	-0.807%
CN1CCN(C(=O)n2ccnn2)CC1	Neutral cholesterol ester hydrolase 1	probe labeling, inhibitor, gel-based competitive ABPP	mouse T-cell proteome	1 µM, 30 min, 37 °C	–	< 50%
O=C1c2sc(-c3ccc(N4CCC(F)C4)nc3F)nc2CCN1c1cccnc1 (stereo not drawn)	TAR DNA-binding protein 43, aggregated (TARDBP, Homo sapiens, UniProt Q13148)	radioligand binding	homogenate, FTLD-TDP, type A	62.5 nM, added: [3H]ACI-19626	–	16.5% and 32.3%
O=C(CC1CC2CCC1C2)NCCNC(=O)Cn1c(=O)[nH]c(=O)c2ccccc21 (stereo not drawn)	Poly [ADP-ribose] polymerase 2 (PARP2, Homo sapiens, UniProt Q9UGN5)	enzyme activity, inhibitor	–	50 nM	–	34%
Cc1c(COc2cc(OCc3cccc(C#N)c3)c(CNC(CO)CO)cc2Cl)cccc1-c1cccc(OCCCCCC(=O)NO)c1	HDAC3	enzyme activity, inhibitor	–	1 µM	–	85.1%
CC(=O)O[C@@]1(C)CN(Cc2ccccc2)[C@H]2C[C@@H]1CC(=O)[C@@H]2C	Delta-type opioid receptor (Oprd1, Rattus norvegicus, UniProt P33533)	ligand displacement, radioligand	–	1 µM	–	16%
O=C(Nc1ccc(C(F)F)cc1)[C@H](CC1CCCCC1)Nc1nn2c(=O)ccnc2s1	Tyrosine-protein phosphatase non-receptor type 6 (PTPN6, Homo sapiens, UniProt P29350)	enzyme activity, inhibitor	–	10 µM	–	10%
COc1ccc(CN2CC(COc3nccs3)CC(F)(F)C2)cc1F (stereo not drawn)	DRD4	ligand displacement, radioligand	–	10 µM	–	8%
C=CCN(CC=C)C(=O)n1ccnn1	sn-1-specific diacylglycerol lipase ABHD11	serine hydrolase activity, inhibitor, competitive gel-based ABPP	mouse T-cell proteome	1 µM, 30 min, 37 °C	–	> 95%
Cc1ccc(CN(C)C(=O)C(CCc2ccccc2)NC(=O)C(NC(=O)c2ccc(OCc3ccccc3)cc2)C(C)O)cc1 (stereo not drawn)	PLAT	enzyme activity, inhibitor	–	100 µM	–	14%
CS(=O)(=O)Nc1cccc(-c2csc3cnc(Nc4ccc(N5CCN(CCCCCOc6cccc7c6C(=O)N(C6CCC(=O)NC6=O)C7=O)CC5)cc4)nc23)c1 (stereo not drawn)	PIP4K2A	probe labelling, inhibitor, KiNativ chemoproteomics	MOLT-4	1 µM	–	-8.69%
O=C(CCCc1ccc2c(c1)OCCO2)NCCNC(=O)Cn1c(=O)[nH]c(=O)c2ccccc21	PARP1	enzyme activity, inhibitor	–	0.104 µM	–	90%
COc1cc(OC)c(F)c(/C=C/c2cnc3ccn(S(=O)(=O)c4cn(CCF)cn4)c3n2)c1F	Insulin-like growth factor 1 receptor (IGF1R, Homo sapiens, UniProt P08069)	–	–	100 nM	–	11.5%
CN(Cc1ccc(/C=C/C(=O)NO)cc1)CC12CC3CC(CC(C3)C1)C2	human MC4 receptor	agonist radioligand binding	–	0.05 µM	–	7%
Cc1nc2c(F)cc(-c3nc(Nc4ccc(CNC(=O)CCCCCCC(=O)NO)cc4)ncc3F)cc2n1C(C)C	PIP4K2A	enzyme activity, inhibitor	–	1 µM	–	0%
Cc1cc(C(=O)NCCNC(=O)c2cccc(COc3ccccc3C(N)=O)c2)n[nH]1	PARP1	enzyme activity, inhibitor	–	5 nM	–	5%
c1ccc(CSc2nnc(-c3ccco3)c(-c3ccco3)n2)cc1	Breakpoint cluster region protein GAP domain	GAP activity	–	10 µM, selectivity counter screen	–	-31.1%
Cc1c(COc2cc(OCc3cccc(C#N)c3)c(CNCCO)cc2Cl)cccc1-c1cccc(OCc2ccc(/C=C/C(=O)NO)cc2)c1	HDAC3	enzyme activity, inhibitor	–	1 µM	–	24.4%
CCOC(=O)C12CC1C(n1cnc3c(NC)nc(C#Cc4ccc(Br)s4)nc31)C(O)C2O (stereo not drawn)	Sodium-dependent serotonin transporter (SLC6A4, Homo sapiens, UniProt P31645)	ligand displacement, radioligand	–	10 µM	–	9%

Structure (SMILES)	target	test	system	setting	scale	inhibition
CC(=O)NCCNCc1cc(Cl)c(OCc2cccc(-c3cccc(OCCCCCC(=O)NO)c3)c2C)cc1OCc1cccc(C#N)c1	HDAC3	enzyme activity, inhibitor	–	1 µM	–	84.8%
Cl.Cl.N[C@@H](C(=O)N1CCCC1)C1CCN(c2nccc3c(-c4ncc(Cl)cc4Cl)cccc23)CC1	Protein-arginine deiminase type-4 (PADI4, Homo sapiens, UniProt Q9UM07)	enzyme activity, inhibitor	–	19.5 nM, added: Ca2+ 0.4 mM	–	2.88% and -5.05% and -0.456%
O=C(N(c1ccccc1)c1ccccc1)n1ccnn1	Platelet-activating factor acetylhydrolase 2, cytoplasmic	serine hydrolase activity, inhibitor, competitive gel-based ABPP	mouse T-cell proteome	1 µM, 30 min, 37 °C	–	< 50%
CC(=O)C12NC(C)(C)CC1(C)C(=O)C1=C2c2c(c3c4n2C(C)(C)CC2=C4C4(CC(C)(C)NC(C)(C4)C2=O)CC3(C)C)C(=O)C(C)(C)N1 (single isomer, unassigned; (+))	Sodium channel protein type 2 subunit alpha (SCN2A, Homo sapiens, UniProt Q99250)	sodium current	HEK293T	40 µM	–	14 ± 0.01%
C[Si](C)(C)C[C@H](CN)CC(=O)O	Beta-1 adrenergic receptor (ADRB1, Homo sapiens, UniProt P08588)	cell-free assay, inhibitor	–	250 µM	–	-13%
Cn1sc(Nc2c(Cl)ccc3ncccc23)c(C#N)c1=O	PARP1	enzyme activity, inhibitor	–	10 µM	–	8%
CO[C@@H](C)c1c(NC(=O)Nc2cnc(-n3nccn3)c(C(F)(F)F)c2)cnc2sc(C)nc12	Galanin receptor type 2 (GALR2, Homo sapiens, UniProt O43603)	ligand displacement, radioligand	–	10 µM	–	-2%
Cc1c(COc2cc(OCc3cccc(C#N)c3)c(CNC(CO)(CO)CO)cc2Cl)cccc1-c1cccc(OCCCCCCC(=O)NO)c1	HDAC3	enzyme activity, inhibitor	–	1 µM	–	95.8%
CCn1cc(-c2cccc(C(F)(F)F)c2)c2sc(C(=N)NC3CCS(=O)(=O)CC3)cc2c1=O	Transcription intermediary factor 1-alpha (TRIM24, Homo sapiens, UniProt O15164)	–	–	1 µM	–	-5.41%
CN(C)C(=O)n1ccnn1	sn-1-specific diacylglycerol lipase ABHD11	serine hydrolase activity, inhibitor, competitive gel-based ABPP	mouse T-cell proteome	1 µM, 30 min, 37 °C	–	< 50%
Cc1cccc(O[C@H]2CCC[C@@H](C(C)CNCc3ccncc3)C2)c1 (relative stereo)	RPS6KA4	enzyme activity, inhibitor	–	10 µM	–	-8%
C/C=C/C(=O)Nc1ccc2nc(NCCCCCN(C)C)nc(NCCCCCCN(C)C)c2c1	DNA (cytosine-5)-methyltransferase 1 (DNMT1, Homo sapiens, UniProt P26358)	enzyme activity, inhibitor, radiometric	–	10 µM	–	3%
COc1ccc2nc(C)ccc2c1Nc1sn(C)c(=O)c1C#N	PARP1	enzyme activity, inhibitor	–	10 µM	–	3%
O=C(N1CCCC1)n1ccnn1	Platelet-activating factor acetylhydrolase 2, cytoplasmic	serine hydrolase activity, inhibitor, competitive gel-based ABPP	mouse T-cell proteome	1 µM, 30 min, 37 °C	–	> 95%
O=C1CC(=O)N(c2ccccc2)N1c1ccccc1	Breakpoint cluster region protein GAP domain	GAP activity	–	10 µM, selectivity counter screen	–	-16.4%
O=C1c2sc(-c3ccc(N4CCC(CO)CC4)nc3F)nc2CCN1c1cccnc1	AMPA receptor	radioligand binding	–	1 µM, added: agonist radioligand	–	0%
CCN(CC)C(=O)n1ccnn1	Platelet-activating factor acetylhydrolase 2, cytoplasmic	serine hydrolase activity, inhibitor, competitive gel-based ABPP	mouse T-cell proteome	1 µM, 30 min, 37 °C	–	< 50%
c1ccc(OC[C@H]2CN(CCN3CCc4ccccc43)CCO2)nc1	DRD4	radioligand binding	–	concentration not given, added: [3H]N-methylspiperone	–	72.4%
Cc1c(COc2cc(OCc3cccc(C#N)c3)c(CNCCO)cc2Cl)cccc1-c1cccc(OCc2ccc(C(=O)NO)cc2)c1	HDAC3	enzyme activity, inhibitor	–	1 µM	–	39.4%
Cc1ccc(CNC(=O)[C@H](CCc2ccccc2)NC(=O)[C@H](CC(=O)NCC(C)(C)C)NC(=O)c2ccc(OCc3ccccc3)cc2)cc1	PLAT	enzyme activity, inhibitor	–	100 µM	–	13%
O=C(NCCCCc1ccccc1)n1c(=O)oc2cc(-c3ccc(F)cc3)ccc21	Caspase-8 (CASP8, Homo sapiens, UniProt Q14790)	enzyme activity, inhibitor	–	10 µM	–	-0.9%
CC(C)Cn1c(SCC(=O)N2CCc3ccccc3C2)nc2cc(Cl)ccc2c1=O	DRD4	ligand displacement, radioligand	–	10 µM	–	-60%
CC(=O)c1ccc2c3c(cccc13)NC(C)=N2	Breakpoint cluster region protein GAP domain	GAP activity	–	10 µM, selectivity counter screen	–	9.74%
C=CC(=O)Nc1cccc(-c2cnc3[nH]cc(C(=O)NC(C)(C)C)c3n2)c1	RPS6KA4	kinase activity	–	0.1 µM	–	5% and 8%
CC[C@H](C)[C@@H]1NC(=O)[C@H](Cc2ccccc2C(F)(F)F)NC(=O)CCSCc2cccc(n2)CSCCCNC(=O)[C@H](CCCCCC(=O)O)NC1=O	Histone deacetylase 8 (HDAC8, Homo sapiens, UniProt Q9BY41)	enzyme activity, inhibitor, fluorogenic	–	30 µM	–	25%

A few entries again:
Structure (SMILES)	target	test	system	setting	scale	inhibition
CO[C@@H](C)c1c(NC(=O)Nc2cnc(-n3nccn3)c(C(F)(F)F)c2)cnc2sc(C)nc12	Galanin receptor type 2 (GALR2, Homo sapiens, UniProt O43603)	ligand displacement, radioligand	–	10 µM	–	-2%
CC(=O)NCCNCc1cc(Cl)c(OCc2cccc(-c3cccc(OCCCCCC(=O)NO)c3)c2C)cc1OCc1cccc(C#N)c1	HDAC3	enzyme activity, inhibitor	–	1 µM	–	84.8%
CC(=O)O[C@@]1(C)CN(Cc2ccccc2)[C@H]2C[C@@H]1CC(=O)[C@@H]2C	Delta-type opioid receptor (Oprd1, Rattus norvegicus, UniProt P33533)	ligand displacement, radioligand	–	1 µM	–	16%
CCn1cc(-c2cccc(C(F)(F)F)c2)c2sc(C(=N)NC3CCS(=O)(=O)CC3)cc2c1=O	Transcription intermediary factor 1-alpha (TRIM24, Homo sapiens, UniProt O15164)	–	–	1 µM	–	-5.41%
COc1ccc2nc(C)ccc2c1Nc1sn(C)c(=O)c1C#N	PARP1	enzyme activity, inhibitor	–	10 µM	–	3%
CC[C@H](C)[C@@H]1NC(=O)[C@H](Cc2ccccc2C(F)(F)F)NC(=O)CCSCc2cccc(n2)CSCCCNC(=O)[C@H](CCCCCC(=O)O)NC1=O	Histone deacetylase 8 (HDAC8, Homo sapiens, UniProt Q9BY41)	enzyme activity, inhibitor, fluorogenic	–	30 µM	–	25%
Cc1c(COc2cc(OCc3cccc(C#N)c3)c(CNCCO)cc2Cl)cccc1-c1cccc(OCc2ccc(C(=O)NO)cc2)c1	HDAC3	enzyme activity, inhibitor	–	1 µM	–	39.4%
COc1ncc2nc(C)n(Cc3ncc(S(N)(=O)=O)cc3F)c2c1-c1ccccc1	Cannabinoid receptor 1 (CNR1, Homo sapiens, UniProt P21554)	antagonist, cell-based	–	10 µM	–	-0.807%
CCN(CC)C(=O)n1ccnn1	Platelet-activating factor acetylhydrolase 2, cytoplasmic	serine hydrolase activity, inhibitor, competitive gel-based ABPP	mouse T-cell proteome	1 µM, 30 min, 37 °C	–	< 50%
